Published values pooled from the literature.
Compare with care: the assays were run in different laboratories.
Target: Albumin (ALB, Homo sapiens, UniProt P02768)

CC1(C)C(=CC=C2C[N+](C)(C)CC(C=CC3=[N+](CCCCCC(=O)O)c4ccccc4C3(C)C)=C2Cl)N(CCCCCC(=O)O)c2ccccc21 — covalent adduct formation (HPLC; 72 h, 37 °C, 2 equiv albumin): ~30%
O=S([O-])c1ccccc1N=Cc1ccccc1[O-].[Cu+2].c1c[nH]cn1 — FRET efficiency (FRET; 4 µM): 0.35
Cc1ccc(C(C)C)cc1.O=C(N=P(c1ccccc1)(c1ccccc1)c1ccccc1)c1[c-]cccc1.[Cl-].[Ru+2] — Stern-Volmer constant (fluorescence quenching; pH 7.4): 18100 M⁻¹
O=C([O-])CN1CCN(CC(=O)[O-])CCN(CC(=O)c2ccc(-c3ccc(OCC(=O)O)cc3)cc2)CCN(CC(=O)[O-])CC1.[Gd+3] — r1 relaxivity (HEPES buffer; 25 °C, 60 MHz): 5.38 mM⁻¹ s⁻¹
CCCCCC(C)NCC(=O)O (centres unmarked) — apparent binding constant (UV-vis absorption titration; pH 7.4, room temperature): 1.02 mM⁻¹
CCNC(=O)[O][Pt]([Cl])([Cl])[O]C(=O)CCC(=O)O.N.N — binding constant (Ka) (Trp214 fluorescence quenching): 2600 M⁻¹
C#CC(=O)Nc1ccc(-c2c([Si](C)(C)C)c3ccccc3c3ccc4ccccc4[n+]23)cc1 — conversion (LC-MS; 16 h, pH 7.4, 25 °C, covalent modification of Cys34): 75%
C1=CCCC=CCC1.F[P-](F)(F)(F)(F)F.[Pt+][c]1ccccc1P(=Nc1ccccc1)(c1ccccc1)c1ccccc1 — Stern-Volmer constant (fluorescence quenching; pH 7.4, with: HSA 10 µM): 3.67e+06 M^–1
Cc1cnc2c(c1)NC(=O)c1cccnc1N2C1CC1 — binding stoichiometry (ITC; concentration not given, 298 K): 1.3
C#CC(=O)Nc1ccc(-c2c([Si](C)(C)C)c3ccccc3c3c4ccccc4cc[n+]23)cc1 — conversion (LC-MS; 16 h, pH 7.4, 25 °C, covalent modification of Cys34): 59%
CCCNCC(=O)O — α-helix content (circular dichroism; 0.12 mM): 41.3%
C#CC(=O)c1ccc(-c2c([Si](C)(C)C)c3ccccc3c3cc(-c4ccccc4)c4ccccc4[n+]23)cc1 — conversion (LC-MS; 16 h, pH 7.4, 25 °C, covalent modification of Cys34): 70%
O=C1Nc2cccnc2N(C2CC2)c2ncccc21 — binding entropy (ITC; concentration not given): 25.5 J/(K·mol)
[C-]#[O+].[C-]#[O+].[C-]#[O+].[C-]#[O+].[C-]#[O+].[C-]#[O+].[Cl-].[Cl-].[Re+].[Re+].c1cnc(-c2ncccn2)nc1 — binding constant (tryptophan fluorescence quenching): 18700 M⁻¹
O=C(/C=C/c1ccc(O)c(O)c1)NCCCCCCCC[P+](c1ccccc1)(c1ccccc1)c1ccccc1 — ΔG of binding (van't Hoff analysis; concentration not given): -6.22 kcal/mol
CCCCCCCCCCCCNC(=O)[O][Pt]([Cl])([Cl])[O]C(=O)CCC(=O)O.N.N — binding constant (Ka) (Trp214 fluorescence quenching): 37000 M⁻¹
Cc1c(C)c(C)[c-](C)c1C.[C-]#[O+].[C-]#[O+].[C-]#[O+].[Cl-].[Cl-].[Cl-].[Ir+3].[Re+].c1cnc(-c2ncccn2)nc1 — binding constant (tryptophan fluorescence quenching): 12400 M⁻¹

For quick reference, copied from above:
O=C([O-])CN1CCN(CC(=O)[O-])CCN(CC(=O)c2ccc(-c3ccc(OCC(=O)O)cc3)cc2)CCN(CC(=O)[O-])CC1.[Gd+3] — r1 relaxivity (HEPES buffer; 25 °C, 60 MHz): 5.38 mM⁻¹ s⁻¹
CCCCCC(C)NCC(=O)O (centres unmarked) — apparent binding constant (UV-vis absorption titration; pH 7.4, room temperature): 1.02 mM⁻¹
CCNC(=O)[O][Pt]([Cl])([Cl])[O]C(=O)CCC(=O)O.N.N — binding constant (Ka) (Trp214 fluorescence quenching): 2600 M⁻¹
